# Assay results gathered from unrelated publications.
# Lines come from different studies, so protocols differ. Several values in a cell are separate wells, animals, samples, runs or records. ± gives the spread as reported.
# Cell line: MDA-MB-231
Structure (SMILES),read-out,method,time,setting,IC50
Nc1cccc[n+]1Cc1cccc(C[n+]2ccccc2N)c1,cell growth or viability,MTT,72 h,,19.1 µM
COC1=C(OC)C(O)C(CC=C(C)CCC=C(C)CCC=C(C)C(=O)O)C(C)C1=O (centres unmarked),cell growth or viability,MTS,72 h,,> 25 µM
c1ccc(-n2nc(-c3ccccn3)n[n+]2-c2ccccc2)cc1,cell growth or viability,resazurin,72 h,,210 µM
Cc1ccc(C(C)C)cc1.O=C(N=P12CN3CN(CN(C3)C1)C2)c1[c-]cccc1.[Cl-].[Ru+2],cell growth or viability,MTT,24 h,,75.4 µM
O=C(CNc1nc(NNC(=O)c2ccc(Nc3nc(Nc4ccc(C(=O)NNc5nc(NCC(=O)NO)nc(N6CCCCC6)n5)cc4)nc(Nc4ccc(C(=O)NNc5nc(NCC(=O)NO)nc(N6CCCCC6)n5)cc4)n3)cc2)nc(N2CCCCC2)n1)NO,cell growth or viability,MTT,72 h,,0.0797 µM
CN[C@@H](C)C(=O)N[C@H]1CN(C(=O)Cc2ccccc2)CC[C@H]2CC[C@@H](C(=O)NCc3ccc(F)cc3)N2C1=O,cell growth or viability,,96 h,,0.017 µM
C[C@@H]1CC[C@@H]([C@](O)(CNCc2ccc(F)cc2)COCc2ccccc2)[C@H](OCc2ccccc2)C1,cell growth or viability,MTT,72 h,,15.4 µM
CC(C)c1cccc(C(C)C)c1N=[C](NCc1ccc(N)cc1)[AuH][Cl],cell growth or viability,,,,> 100 µM
O=C1N(Cc2cn(CC/C(=C(\c3ccccc3)c3ccc(OCCO)cc3)c3ccccc3)nn2)c2ccccc2C12OCCO2,cell growth or viability,MTT,,,> 100 µM
[Cl][Au-][c]1n(-c2c(C(c3ccccc3)c3ccccc3)cc(C(c3ccccc3)c3ccccc3)cc2C(c2ccccc2)c2ccccc2)c2c([n+]1-c1c(C(c3ccccc3)c3ccccc3)cc(C(c3ccccc3)c3ccccc3)cc1C(c1ccccc1)c1ccccc1)-c1cccc3cccc-2c13,cell growth or viability,MTT,72 h,,> 50 µM
Cc1cc(C=O)cc(C)c1Oc1cc(Nc2ccc(C#N)cn2)nc2ccncc12,,,48 h,,113 ± 6.2 µM
C[C@@H]1CC[C@@H]([C@@](O)(CNCc2ccccc2F)COCc2ccccc2)[C@H](OCc2ccccc2)C1,cell growth or viability,MTT,72 h,,6 µM
CC(C)=CCc1c2c(c(O)c3c(=O)c(-c4ccc(O)cc4)coc13)C=CC(C)(C)O2,cell growth or viability,MTT,24 h,,13.9 µM
CC(=O)[C@@H]1CCCN1C(=O)[C@@H]1CCCN1C(=O)[C@H](Cc1ccccc1)N(C)C(=O)OC(C)(C)C,cell growth or viability,SRB,,,6 µM
CC(C)c1cccc(C(C)C)c1[N+]#[C][Pt-2]([Cl])([Cl])[C]#[N+]c1c(C(C)C)cccc1C(C)C,cell growth or viability,,,,0.7 µM and < 1 µM
C[C@]12CC/C(=N\OCCN3CCCC3)C=C1CCC1C2CC[C@]2(C)/C(=C/c3ccccn3)CCC12 (some centres unmarked),cell growth or viability,MTT,72 h,,4.7 µM
CN[C@@H](C)C(=O)N[C@H]1CN(C(=O)Cc2ccccc2)CC[C@H]2CC[C@@H](C(=O)NCc3ccccc3C(F)(F)F)N2C1=O,cell growth or viability,,96 h,,0.118 µM
CCCCCCCCCCCCCCCOC(=O)/C=C/c1ccc(O)c(O)c1,cell viability,MTT,48 h,serum-free medium,3.9 ± 0.2 µg/mL
C=CCc1ccc(OC(C)=O)c(OC)c1,,MTT,24 h,,> 50 µM
CN[C@@H](C)C(=O)N[C@H]1CN(C(=O)Cc2ccccc2)CC[C@H]2CC[C@@H](C(=O)NCc3ccc(C(C)(C)C)cc3)N2C1=O,cell growth or viability,,96 h,,1.32 µM
CCCCCCCC(=O)Oc1c(C)c(OC)c2c(c1C)OC(=O)[C@@H](CCCCCC)[C@]2(O)/C=C/c1ccccc1 (racemic),cell growth or viability,SRB,72 h,,> 50 µM
CCOC(=O)C1CC(C)C2C=CC3CCN(C(=O)C4CCC5C=CC6(CCCN6C(=O)C(Cc6ccccc6Cl)NC(C)=O)C(=O)N54)C3C(=O)N12 (centres unmarked),cell migration,,,,24 µM
COc1ccccc1CNC[C@@](O)(COCc1ccccc1)[C@@H]1CC[C@@H](C)C[C@H]1OCc1ccccc1,cell growth or viability,MTT,72 h,,2 µM
CC12CCC3c4ccc(OCCOc5no[n+]([O-])c5S(=O)(=O)c5ccccc5)cc4CCC3C1CCC2O (centres unmarked),cell growth or viability,MTT,48 h,,0.0045 µM
O=S([O-])c1ccccc1N=Cc1ccccc1[O-].[Cu+2].c1c[nH]cn1,cell viability,MTT,24 h,,9.97 ± 0.03 µM
Cc1cc(/C=C/C#N)cc(C)c1Oc1cc(Nc2ccc(C#N)cn2)nc2ccncc12,,,48 h,,> 120 µM
O=C(COc1ccccc1C1=Nn2c(Cc3ccccc3)nnc2SC1)NCCCNC(=O)COc1ccccc1C1=Nn2c(Cc3ccccc3)nnc2SC1,cell viability,MTT,,,> 50 µM
O=C(CNc1nc(NNC(=O)c2ccc(Nc3nc(Nc4ccc(C(=O)NNc5nc(NCC(=O)NO)nc(N6CCOCC6)n5)cc4)nc(Nc4ccc(C(=O)NNc5nc(NCC(=O)NO)nc(N6CCOCC6)n5)cc4)n3)cc2)nc(N2CCOCC2)n1)NO,cell growth or viability,MTT,72 h,,0.0467 µM
Cc1cc(C)c(N=[C](NCc2cccc(N)c2)[AuH][Cl])c(C)c1,cell growth or viability,,,,> 100 µM
COc1ccc(/N=N/C(=S)N2CCCC2)cc1,cell growth or viability,resazurin,48 h,,> 50 µM
CCN(CC)c1ccc2c(c1)[O][Pd]([CH2]C#N)[N](C1CCCCC1)c1ncccc1N=C2,cell growth or viability,MTT,48 h,,40.6 µM
COc1cc2c(cc1OCCOc1no[n+]([O-])c1S(=O)(=O)c1ccccc1)CCC1C2CCC2(C)C(O)CCC12 (centres unmarked),cell growth or viability,MTT,48 h,,0.0183 µM
Cc1cc(C)c(N[C](NCc2ccc(N[C](Nc3c(C(C)C)cccc3C(C)C)=[Pd-]([Cl])([Cl])[C]#[N+]c3c(C(C)C)cccc3C(C)C)cc2)=[Au][Cl])c(C)c1,cell growth or viability,,,,17 µM
CCCCCCCCCCCCCCCC(=O)Oc1ccc(CO)cc1OC(=O)c1ccccc1,cell viability,MTT,48 h,serum-free medium,8.6 ± 0.9 µg/mL
Cc1ccc(/C=N/NC(=O)c2cc3cc(Nc4nccc(-c5cccnc5)n4)ccc3[nH]2)cc1,cell growth or viability,MTT,48 h,,3.81 µM
CC(C)c1cccc(C(C)C)c1[N+]#[C][Pd-]([Cl])([Cl])=[C](Nc1cccc(CN[C](NC(C)(C)C)=[Au][Cl])c1)Nc1c(C(C)C)cccc1C(C)C,cell growth or viability,,,,> 100 µM
CN[C@@H](C)C(=O)N[C@H]1CN(C(=O)Cc2ccccc2)CC[C@H]2CC[C@@H](C(=O)NCc3ccc(-c4ccccc4)cc3)N2C1=O,cell growth or viability,,96 h,,1.03 µM
CCOC(=O)c1ccc2c(c1)n(CC)[c]([Au-][Cl])[n+]2CC,cell growth or viability,crystal violet,96 h,,5.2 µM
CN(C)CCCO/N=C1/C=C2CCC3C(CC[C@]4(C)/C(=C/c5ccccn5)CCC34)[C@@]2(C)CC1 (some centres unmarked),cell growth or viability,MTT,72 h,,44.6 µM
Cc1ccc(S(=O)(=O)[O][Re-2]2(=[C]=O)(=[C]=O)(=[C]=O)[n+]3c(C)cc(-c4ccccc4)c4ccc5c(-c6ccccc6)cc(C)[n+]2c5c43)cc1,cell growth or viability,resazurin,72 h,,0.248 µM
CN[C@@H](C)C(=O)N[C@H]1CN(C(=O)Cc2ccccc2)CC[C@H]2CC[C@@H](C(=O)NCc3ccc(C)cc3)N2C1=O,cell growth or viability,,96 h,,0.017 µM
CC(=O)OC[C@H]1O[C@@H](Oc2ccc(C#[C][Pt+])cc2)[C@H](OC(C)=O)[C@@H](OC(C)=O)[C@@H]1OC(C)=O.O=S(=O)([O-])C(F)(F)F.c1ccc(-c2cccc(-c3ccccn3)n2)nc1,cell growth or viability,,72 h,,48.4 µM
Cc1cc(C)c(N=[C](NCc2ccc(N)cc2)[AuH][Cl])c(C)c1,cell growth or viability,,,,> 100 µM
COc1ccc2c(c1)/C(=N/NC(N)=S)C(=O)N2CCn1cnc2c(N)ncnc21,cell growth or viability,SRB,72 h,,72.4 µM
Cc1cc(-c2ccccc2)c2ccc3c(-c4ccccc4)cc(C)[n+]4c3c2[n+]1[Re-2]4(=[C]=O)(=[C]=O)(=[C]=O)[O]S(=O)(=O)c1ccc2ccccc2c1,cell growth or viability,resazurin,72 h,,6.34 µM
COc1ccc2c(c1)OCc1c-2oc2cc3c(cc12)OCO3,cell growth or viability,MTT,72 h,,22.8 µM
Cc1cc(=O)[nH]c(=O)n1CCCCCCOC(=O)C12CCC(C)C(C)C1C1=CCC3C4(C)CCC(O)C(C)(C)C4CCC3(C)C1(C)CC2 (centres unmarked),collagen biosynthesis,[3H]-proline incorporation,24 h,,~10 µM
C#CCNC(=O)C(CC)C1CCC(C)C(C(C)C(O)C(C)C(=O)C(CC)C2OC3(C=CC(O)C4(CCC(C)(C5CCC(O)(CC)C(C)O5)O4)O3)C(C)CC2C)O1 (centres unmarked),cell growth or viability,MTT,72 h,,> 10 µM
Cc1ccc(C(C)C)cc1.O=C(N=P(c1ccccc1)(c1ccccc1)c1ccccc1)c1[c-]cccc1.[Cl-].[Ru+2],cell growth or viability,MTT,24 h,,7.1 µM
CC(C)(C)OC(=O)N1CCN(CC(OCc2ccc3ccccc3c2)c2ccc(Cl)cc2Cl)CC1 (centres unmarked),cell growth or viability,MTT,24 h,,20.9 µM
CC(=O)N[C@@H](Cc1c[nH]c2ccccc12)C(=O)[O][Re-2]1(=[C]=O)(=[C]=O)(=[C]=O)[n+]2ccc(-c3ccccc3)c3ccc4c(-c5ccccc5)cc[n+]1c4c32,cell growth or viability,resazurin,72 h,,1.99 µM
C=CC(=C)CC[C@]1(C)[C@H](C)CC[C@@]23C(=C[C@H](OC(=O)CCCCC)C[C@@H]12)[C@@H](OC(C)=O)O[C@H]3OC(C)=O,cell growth or viability,SRB,,,0.49 µM
CC12CCC3c4ccc(OCCOc5no[n+]([O-])c5S(=O)(=O)c5ccccc5)c(Br)c4CCC3C1CCC2O (centres unmarked),cell growth or viability,MTT,48 h,,0.0046 µM
COC(Cn1ccn(C)[c]1=[Ag][O]C(C)=O)c1ccccc1 (centres unmarked),cell growth or viability,MTT,72 h,,20.9 µM
COc1cc(/C=C/C(=O)/C=C/c2cn(-c3ccccc3)nc2C(=O)O)cc(OC)c1OC,cell growth,,72 h,,> 25 µM
COc1cccc(CNC[C@](O)(COCc2ccccc2)[C@@H]2CC[C@@H](C)C[C@H]2OCc2ccccc2)c1,cell growth or viability,MTT,72 h,,1.9 µM
C=C1C(=O)OC2CC3=C[C@@H](C/C(C)=C/C(OC(=O)Cc4cccc5ccccc45)[C@H]12)OC3=O (some centres unmarked),cell growth or viability,MTT,24 h,,3.5 µM
COc1ccc(/C=C/C(=O)/C=C/c2cn(-c3ccccc3)nc2C(=O)O)cc1O,cell growth,,72 h,,> 25 µM
Cc1ccccc1[N]1c2ncccc2N=Cc2cc(Br)ccc2[O][Pd]1[CH2]C#N,cell growth or viability,MTT,48 h,,29.8 µM
